Assay results pooled from the literature.
Parts stem from different laboratories: compare values within a part only. Substitutions count along the parent as printed.

Sample 1
Target: CCNA1, cyclin fold, Cln2 fusion (human)
Method: yeast growth competition, sequencing
Matrix: yeast
Notes: strong parent motif
Reference: not given
Direction: higher = stronger binding
Starting sequence: RBL2 docking peptide (human); STTRRRLFVENDS; partner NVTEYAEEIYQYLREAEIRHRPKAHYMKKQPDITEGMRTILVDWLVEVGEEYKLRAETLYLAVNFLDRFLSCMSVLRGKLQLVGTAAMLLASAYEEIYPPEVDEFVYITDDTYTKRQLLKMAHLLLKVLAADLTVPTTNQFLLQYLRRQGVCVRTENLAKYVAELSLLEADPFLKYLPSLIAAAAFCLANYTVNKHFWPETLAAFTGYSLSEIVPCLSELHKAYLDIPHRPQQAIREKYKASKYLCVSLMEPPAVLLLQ
Substitution	normalised enrichment score
SETRRRLFVENDS [T2E]	0.62
STTRRRLSVENDS [F8S]	0.44
VTTRRRLFVENDS [S1V]	0.618
MTTRRRLFVENDS [S1M]	0.581
SDTRRRLFVENDS [T2D]	0.153
STIRRRLFVENDS [T3I]	0.498
STFRRRLFVENDS [T3F]	0.368
STTRHRLFVENDS [R5H]	0.458
SNTRRRLFVENDS [T2N]	0.543
SYTRRRLFVENDS [T2Y]	0.572
STTARRLFVENDS [R4A]	0.763
STTRRRLFVTNDS [E10T]	0.096
STTRRRLYVENDS [F8Y]	0.349
STTRRRDFVENDS [L7D]	0.485
SHTRRRLFVENDS [T2H]	0.555
ETTRRRLFVENDS [S1E]	0.108
CTTRRRLFVENDS [S1C]	0.82
STTRRRLWVENDS [F8W]	0.261
STTRRRLFVEHDS [N11H]	0.27
STTRRRLFVQNDS [E10Q]	0.306
STTRRRLFVENDT [S13T]	0.227
STTRRRLFVPNDS [E10P]	1.01
STTRRRLFYENDS [V9Y]	0.679
STTRRRLFVYNDS [E10Y]	0.207
STTRRRPFVENDS [L7P]	0.443

Sample 2
Target: Fragile X messenger ribonucleoprotein 1, C-terminal low-complexity region (Fmr1, Mus musculus, UniProt P35922)
Method: RNA Bind-n-Seq
Form: RNA
Matrix: in vitro
Tested at: 200 nM
Notes: whole 134-nt RNA, ends assumed
Together with: 150 mM LiCl
Reference: input library
Direction: higher = stronger binding
All molecules: 7-deaza-guanosine replaces G
Sequence	log2 enrichment
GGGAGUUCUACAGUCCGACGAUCCCUGUGCUACACAUCGUAUGUACCGAAUCGGGGUUUGGGGUUUUUUUGGGGAAAAAGGGGAAAGUAUUAUGUUACGCCGUUCGGAUCUGCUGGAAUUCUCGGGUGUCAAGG	-0.825
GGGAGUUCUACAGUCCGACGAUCCACAGACAACACGCACCCACACAGACACAGAGGGAAGGGGUUGGGAUGGGGACAGUGUGCACAGCAGGGCGGGGUAGGACCCCAGCCCCUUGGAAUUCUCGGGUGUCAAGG	0.1
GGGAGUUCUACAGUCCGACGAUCUGGGAGGUGGAUUUUGUUUAUUUUUUUAGCUCAUUUCCAGGGGUGGGAAUUUUUUUUUAAUAUCUGUCAUGAAUAAAGUUGUUUUUGAAAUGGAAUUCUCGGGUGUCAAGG	0.17
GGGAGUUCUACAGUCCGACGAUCGAAAUUAUGGAAGUGGAAAUUACAAUGAUUUUGGAAAUUAUAACCAGCAACCUUCUAACUACGGUCCAAUGAAGAGUGGAAACUUUGGUGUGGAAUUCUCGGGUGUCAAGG	-2.62
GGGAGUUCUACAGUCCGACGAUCCACAGACAACACGCACCCACACAGACACAGAGGGAAGGGGUUGGGAUGGGGACAGGGUGCACAGCAGGGCGGGGGAGGACCCCAGCCCCUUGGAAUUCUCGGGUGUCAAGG	1.68
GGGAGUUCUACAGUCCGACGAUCCCUGUGCUACACAUCGUAUGUACCGAAUCGGGGUUUUUUGGGUUUUUUGGUUUUUUGGGGAAAGUAUUAUGUUACGCCGUUCGGAUCUGCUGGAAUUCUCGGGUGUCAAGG	-1.16
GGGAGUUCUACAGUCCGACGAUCUCCUGUGCUACACAUCGUAUGUACCGAAUCGGUUUUUUUGGUUUUUUUGGUUUUUUUGGGAAAGUAUUAUGUUACGCCGUUCGGAUCUGCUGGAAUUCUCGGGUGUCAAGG	-0.553
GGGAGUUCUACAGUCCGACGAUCUCCUCAAGUCCUGUGCUACACAUCGUAUGUACCGAAUCGGGAGGGAGGAGGAAAGUAUUAUGUUACGCCGUUCGGAUCUGCACUUCCAGCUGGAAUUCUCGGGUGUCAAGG	-2.16
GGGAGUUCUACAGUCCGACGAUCUCCUCAAGUCCUGUGCUACACAUCGUAUGUACCGAAUCGGGCGGGCGGGCGGAAAGUAUUAUGUUACGCCGUUCGGAUCUGCACUUCCAGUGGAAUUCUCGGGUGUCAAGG	0.685
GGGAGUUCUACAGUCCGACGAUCUUUACAAAUAUGCCCAAGACUUCUUGGUGGCUAUUGCAGAGCCAGUGUGCCGACCAACCCAUGUGCAUGAGUACAAACUAACUGCCUACUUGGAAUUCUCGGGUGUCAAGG	-0.0227
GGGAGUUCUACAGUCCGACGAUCUCCUGUGCUACACAUCGUAUGUACCGAAUCGGGAAAAAAGGAAAAAAGGGAAAAAAGGGAAAGUAUUAUGUUACGCCGUUCGGAUCUGCAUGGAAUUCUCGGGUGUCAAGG	0.18

Sample 3
Target: ABI1, truncated, D143A, DHFR fusion (Arabidopsis thaliana)
Method: DHFR PCA, deep sequencing
Matrix: yeast
Notes: methotrexate growth selection, single substitutions
Together with: (+)-ABA 17 µM
Reference: wild-type fitted maximum
Direction: higher = stronger binding
Starting sequence: PYL1, truncated, DHFR fusion (Arabidopsis thaliana); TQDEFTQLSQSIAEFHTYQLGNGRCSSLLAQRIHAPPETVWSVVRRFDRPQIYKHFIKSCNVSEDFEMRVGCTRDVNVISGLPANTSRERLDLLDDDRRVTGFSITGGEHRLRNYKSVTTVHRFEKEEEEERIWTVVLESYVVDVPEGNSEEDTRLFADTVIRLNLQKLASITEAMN
Substitution	relative binding score [%]
T160L	80.7
Q7L	78.8
R24Q	95.2
V121I	76.1
T106R	38.5
F56S	-0.405
F56K	3.32
L166M	57.9
R123I	31.2
P37G	11.9
G108Q	1.34
G23D	73.8
I133K	95.3
N177A	104
V121H	-1.25
R46W	9.06
R46F	-14.5

Sample 4
Target: Histone acetyltransferase KAT6A, winged helix 2, GST fusion (KAT6A, Homo sapiens, UniProt Q92794, residues 85-181)
Method: protein binding microarray
Form: double-stranded DNA, one strand shown
Matrix: in vitro
Tested at: not given
Notes: 8-mer, flanks averaged, mean of 2 arrays, mostly near background
Reference: not given
Direction: higher = stronger binding
Construct (chain): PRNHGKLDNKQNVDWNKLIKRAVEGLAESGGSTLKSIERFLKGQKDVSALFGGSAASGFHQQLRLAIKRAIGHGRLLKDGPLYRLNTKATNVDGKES
Sequence	E-score
AGCTACTG	0.0713
AGCGGCAG	0.198
TCATTAAA	0.247
AGGGTCCA	-0.0237
ACCGTTTA	-0.116
GAATACTA	0.0619
ACCAACAC	0.0615
CTTCGACA	-0.0208
GCTGTAGA	0.0914
ATCTATTA	-0.00173
AAGCAGTG	-0.00941
ACTACATA	-0.0475
CGCACACG	0.0483
CCACGCGA	-0.0696
CTGAACAG	0.115
AACATCAG	0.152
CCCGACAC	0.145
AAACTCTA	-0.081
ACCCCACC	0.238
GAACCCAA	-0.00853
TAAGCCCA	-0.0476
CCGATGGC	0.0292
AGGAGCGG	-0.0925
AATAACTC	-0.0602
ACTGAGCA	-0.112

Sample 5
Target: RNA binding protein fox-1 homolog 2, RRM domain, GST-SBP tag (RBFOX2, Homo sapiens, UniProt O43251-10, residues 100-194)
Method: RNA Bind-n-Seq
Form: RNA
Matrix: in vitro
Tested at: 365 nM
Notes: natural RNA segment, single round, ends assumed
Reference: no-protein control
Direction: higher = stronger binding
Target sequence (chain): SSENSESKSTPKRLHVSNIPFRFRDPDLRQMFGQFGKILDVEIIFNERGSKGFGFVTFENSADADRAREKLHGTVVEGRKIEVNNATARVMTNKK
Sequence	RBNS enrichment (R)
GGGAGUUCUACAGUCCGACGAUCAGAAGAAUGGAUGUGGUUCUUCUUGUGUAUUUAUUUGUAUCAUAAACACUUGGAACAACAAAGACCAUAAGCAUCAUUUAGCAGUUGUAGCCAUUUUCUAGUUAACUCAUUGGAAUUCUCGGGUGCCAA	0.72
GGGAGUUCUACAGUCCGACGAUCCCCACAGACUGAACCUUUCGCCAGAAGCUGUCCUUAUAACGCCUUAUACGCAUACACAGCCAGGAAACGUGGAGCAUUGUUUCUCACAGAGAGUCUCCAAAUAAAAAGGGUGGAAUUCUCGGGUGCCAA	0.36
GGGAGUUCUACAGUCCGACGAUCCAGCCCAGAGACACAGGAGGCUUCAGGGACAGUGCCCUACUCUAGAAACACCUGCCACUCUAGAUAGUUAGUGUGAGGGAUCCAGGCUUGUGUGAGGGGAAUAAUGUGGAUGGAAUUCUCGGGUGCCAA	2.24
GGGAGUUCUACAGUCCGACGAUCCAUAAACUUCCUGUUCUCCAAAACCUCAAAGAGAUAGAGUUAAUGAGUUGUUGUUUUUUUUUAAAUGGGGGUAGUUUUCUAUCUGUCAUGGGCUCUAGCAUCUACUCCGCUGGAAUUCUCGGGUGCCAA	0.529
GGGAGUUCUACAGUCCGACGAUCGACCAGCCAUUGAGGGGUGGACCCUCAGAAGGCGUCACAACAACCUGGUCACAGGACUCUGCCUCCUCUUCAACUGACCAGCCUCCAUGCUGCCUCCAGAAUGGUCUUUCUGGAAUUCUCGGGUGCCAA	0.31
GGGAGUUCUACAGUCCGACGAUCCUCUGAGAGGAAGUGUGGAGAGUCUCCAUCCAACUCUGCUCCUACUGAGUAAAGUCCCCUUCCCUCCAGAGUGUCACAGAGACACUAGAAUGUCAGGUGCUCUUGUCUGAUGGAAUUCUCGGGUGCCAA	0.837
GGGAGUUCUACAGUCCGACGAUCAACCACAUUAGCACCCUGCCAGCCUACCAGCCUCUCUGUGCACAGCUUCUAAUGUUAUGAUCUAGCUAGAUUUUUAUUUAAAAUAUGAAAAACUGCUUUUCCCAAGACGUUGGAAUUCUCGGGUGCCAA	0.349
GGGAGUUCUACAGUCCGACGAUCAGAAACCAAAGCUGAGUGUUUUAAAGAAUGAACAUAUCUGGAAAUCCUUGCUCUCAAAACAAAACAAUAUAAUCUAUCAAAGGUGUUUUACUCAGUGUUCUAAUUUUUAAUGGAAUUCUCGGGUGCCAA	0.674
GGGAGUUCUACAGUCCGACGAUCGUCCUCCACCAGUUCUCCAUGCGCACCUCUGCAUGUCCGGCACUAGAAUCCCUGAACACUACUUCACACCUCCCCCACUGCCAGUUGGUUGAUGCUCUAGAGCCACUCUUUGGAAUUCUCGGGUGCCAA	9.4
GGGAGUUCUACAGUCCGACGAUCAGUUACUGACUGCUUUAGGCAUAGUCUCCGCAGAAGCCUCGUGUGUCCAGUGCUGGGUGUUUGGGUGCUUCUGUACCAGCCGUCCCCAAGCAGGGCUAAGGCACCUUGAAUGGAAUUCUCGGGUGCCAA	0.257
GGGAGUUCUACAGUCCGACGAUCGACCUUUGAGGUCUAAACAAAUAAUACCCCCGUCGGAAUGGUAACCGAGCCAGCAGCUGAAGUCUCUUUUUCUUCCUCUCGGCUGGAAGAACAUCAAGAUACCUUUGCGUUGGAAUUCUCGGGUGCCAA	0.36
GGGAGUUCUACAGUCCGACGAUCGACUUCAGAAUGUUGUAGGCCUCAUUAGAGCUUGUUCUCCAAAAACCUGCUUGAAAAAGGCAACGUGUUCUUCACAGUGCUCUCCUGUAAGGACAACGCGGCUCAGUCAGUGGAAUUCUCGGGUGCCAA	0.275

Excerpt of the above (sample 4):
Sequence	E-score
ACTGAGCA	-0.112
AAACTCTA	-0.081
TCATTAAA	0.247
CCACGCGA	-0.0696
AACATCAG	0.152
ATCTATTA	-0.00173
GAACCCAA	-0.00853
AGGAGCGG	-0.0925
AGGGTCCA	-0.0237
CCCGACAC	0.145
CGCACACG	0.0483
